Experimental data of several laboratories.

SMILES	species	sample	route	dose	setting	Tmax [min]
Nc1ccc(-c2cc(Cl)c(Cl)c3[nH]c4c(c23)CN(C(=O)CO)CC4)cn1	C57BL/6 mouse	blood	oral	20 mg/kg	–	25
COc1ccc2nc(NC(c3ccc(O)cc3)P(=O)(OC)OC)sc2c1 (stereo not shown)	mouse	plasma	intravenous	10 mg/kg	–	1.8
O=C1CCC(N2C(=O)c3ccc(N4CCC(C(=O)N5CCC(CCN6CCC(CNC(=O)c7cccc(-c8noc(C(F)(F)F)n8)c7)(c7nc(-c8ccccc8)cs7)CC6)CC5)CC4)cc3C2=O)C(=O)N1 (stereo not shown)	CD-1 mouse	plasma	oral	30 mg/kg	–	79.8
Cc1cc(NC(=O)[C@H](O)c2cc(F)cc(F)c2)ccc1-c1cnc(N)c(C(=O)NC(C)C)c1	female nude mouse	plasma	oral	30 mg/kg	single dose	60
Cn1ccc(-c2cc(Cl)c(Cl)c3[nH]c4c(c23)CN(C(=O)CO)CC4)n1	C57BL/6 mouse	blood	intravenous	0.5 mg/kg	–	5
Fc1cccc(-n2cc(-c3ccccc3)nc2NCc2ccc(C(F)(F)F)c(F)c2)c1	male CD-1 mouse	intestine	intraperitoneal	25 mg/kg	single dose	30
C/C(N)=N/C(=N\S(=O)(=O)c1ccc(C(F)(F)F)cc1)N1C[C@H](c2ccccc2)C(c2ccc(Cl)cc2)=N1	male C57BL/6 mouse	lung	intravenous	5 mg/kg	–	30
CCOC(=O)c1nc2cc(Cl)c(Cl)cc2nc1N1CCN(C(=O)Nc2ccc(N3CCNCC3)cc2)CC1	male mouse	plasma	oral	10 mg/kg	–	240
O=C(OC(C(F)(F)F)C(F)(F)F)N1CCC(CNS(=O)(=O)c2ccc(Cl)cc2)CC1	male SCID mouse	plasma	oral	10 mg/kg	–	240
COc1ccccc1/C=C/CNCC(O)COc1ccc(Nc2ccccc2)cc1 (racemic)	mouse	plasma	intraperitoneal	10 mg/kg	–	4.98
Fc1cncc(-c2ccc3[nH]c4ncnc(N[C@H]5CC[C@H](N6CCOCC6)CC5)c4c3c2)c1	CD-1 mouse	plasma	oral	10 mg/kg	–	5.88
Cn1c2cc([S+](C)[O-])sc2c2cnn(Cc3cccc(N)c3)c(=O)c21 (stereo not shown)	male BALB/c mouse	plasma	intraperitoneal	10 mg/kg	single dose	30
O=C(NCCCCc1ccccc1)n1c(=O)oc2cc(-c3ccc(F)cc3)ccc21	CD-1 mouse	plasma	intravenous	1 mg/kg	–	5
OCC1OC(n2cnc3c(NCc4ccc(Br)s4)ncnc32)C(O)C1O (stereo not shown)	male CD-1 mouse	blood	oral	10 mg/kg	–	96
O=C(O)c1ccc(/C=C2\SC(=S)N(Cc3cccc(C(F)(F)F)c3)C2=O)cc1	C57BL/6 mouse	blood	oral	10 mg/kg	–	30
COc1cnc2cccc(N3CCc4c(cc(Cn5ccnc5)cc4-c4cn(C)nc4C(F)(F)F)C3=O)c2c1	male CD-1 mouse	plasma	intraperitoneal	50 mg/kg	–	30
Fc1cccc(-n2cc(-c3ccccc3)nc2NCc2ccc(C(F)(F)F)c(Br)c2)c1	male CD-1 mouse	plasma	intraperitoneal	25 mg/kg	single dose	60
O=S(=O)(N[C@H]1CCO[C@@H](C2c3ccc(F)cc3CCc3cc(F)ccc32)C1)c1ccc(OC(F)(F)F)cc1	mouse	plasma	oral	30 mg/kg	–	282
COC1C(c2ccc(Cl)c(Cc3ccc(OC4CCOC4)cc3)c2)OC(CO)C(O)C1O (stereo not shown)	CD-1 mouse	plasma	oral	10 mg/kg	–	15
CC[C@H](C)/C=C/C=C/C=C/C(O)=C/C(=O)C(F)(F)Cl	female C57BL/6 mouse	plasma	oral	25 mg/kg	–	30
CCn1cc(-c2cc(Cn3ccnc3)cc3c2CCN([C@H](c2cc(OC)ccn2)C2CC2)C3=O)c(C(F)(F)F)n1	male CD-1 mouse	plasma	oral	50 mg/kg	–	48
O=C(c1ccccc1)N1C(c2ccc(OCC3CCN(CCCF)C3)cc2)c2ccc(O)cc2CC12CC2 (stereo not shown)	C57BL/6 mouse	plasma	oral	25 mg/kg	–	60
O=C(Nc1ccc(C(F)F)cc1)[C@H](CC1CCCCC1)Nc1nn2c(=O)ccnc2s1	female nude mouse	plasma	oral	10 mg/kg	–	30
O=S(=O)(Nc1ccc(OC(F)(F)F)cc1)N1CCCC(C2c3ccc(F)cc3CCc3cc(F)ccc32)C1 (stereo not shown)	mouse	plasma	oral	30 mg/kg	–	240
Cc1cc(C(=O)N[C@@H](CC(=O)NC(C)(C)C)C(=O)NCCNC(=O)c2cccc(-n3cccn3)c2)no1	mouse	plasma	oral	1 mg/kg	–	15

Repeated from above:
SMILES	species	sample	route	dose	setting	Tmax [min]
O=S(=O)(N[C@H]1CCO[C@@H](C2c3ccc(F)cc3CCc3cc(F)ccc32)C1)c1ccc(OC(F)(F)F)cc1	mouse	plasma	oral	30 mg/kg	–	282
COC1C(c2ccc(Cl)c(Cc3ccc(OC4CCOC4)cc3)c2)OC(CO)C(O)C1O (stereo not shown)	CD-1 mouse	plasma	oral	10 mg/kg	–	15
CC[C@H](C)/C=C/C=C/C=C/C(O)=C/C(=O)C(F)(F)Cl	female C57BL/6 mouse	plasma	oral	25 mg/kg	–	30
CCn1cc(-c2cc(Cn3ccnc3)cc3c2CCN([C@H](c2cc(OC)ccn2)C2CC2)C3=O)c(C(F)(F)F)n1	male CD-1 mouse	plasma	oral	50 mg/kg	–	48
